# Assay results pooled from the literature.
# Lines come from different studies, so protocols differ. Numbers after ± are the reported error.
SMILES,tested on,assay,test system,setting,how to read,measurement,result
CC[C@H](C)[C@H](NC(=O)[C@H](CC(C)C)NC(=O)[C@H](CCCCN)NC(=O)[C@@H](N)CCCCN)C(=O)N[C@H](C(=O)N[C@@H](Cc1ccccc1)C(=O)N[C@H](C(=O)N1CCC[C@H]1C(=O)N[C@@H](CCCCN)C(=O)N[C@@H](CCCCN)C(=O)N[C@H](C(=O)N[C@@H](CCCNC(=N)N)C(=O)N[C@@H](CCC(=O)O)C(=O)N[C@@H](CCCCN)C(=O)N[C@@H](CCCCN)C(=O)N[C@@H](CCCCN)C(=O)N[C@@H](CCC(=O)O)C(=O)N[C@@H](CS)C(=O)N[C@@H](CC(C)C)C(=O)N[C@H](C(=O)O)C(C)C)[C@@H](C)O)[C@@H](C)CC)[C@@H](C)O,voltage-gated sodium channel,"resurgent sodium current, kinetic model fit",mouse CA3 neurons,"200 µM, membrane potential -10 mV",,rate constant kOI,109 s⁻¹
O=C1CC(c2ccoc2)c2ccc(NC(=O)c3ccccc3)cc2N1 (stereo not shown),recombinant aromatase CYP19,absorption spectroscopy,,"100 µM, no androstenedione",,Soret peak wavelength,420 nm
CC[C@H](C)[C@H](NC(=O)[C@H](Cc1ccccc1)NC(=O)[C@@H](NC(=O)[C@@H](NC(=O)[C@H](CC(C)C)NC(=O)[C@H](CCCCN)NC(=O)[C@@H](N)CCCCN)[C@@H](C)CC)[C@@H](C)O)C(=O)N[C@@H](CC(C)C)C(=O)N[C@@H](CCCCN)C(=O)N[C@@H](CCCCN)C(=O)N[C@H](C(=O)N[C@@H](CCCNC(=N)N)C(=O)N[C@@H](CCC(=O)O)C(=O)N[C@@H](CCCCN)C(=O)N[C@@H](CCCCN)C(=O)N[C@@H](CCCCN)C(=O)N[C@@H](CCC(=O)O)C(=O)N[C@@H](CS)C(=O)N[C@@H](CC(C)C)C(=O)N[C@H](C(=O)O)C(C)C)[C@@H](C)O,voltage-gated sodium channel,"resurgent sodium current, kinetic model fit",mouse CA3 neurons,"200 µM, membrane potential -30 mV",,rate constant kOB,62 s⁻¹
Cc1sc2ncn(CC(=O)N3CCCC3)c(=O)c2c1-c1cccc(Br)c1,"NMDA receptor, mouse","single-channel current, outside-out patch",cortical neurons,"50 µM, with: Ca2+ 1.25 mM",,γ2 conductance level area,38%
COc1ccc(C2CC(c3ccc(C)cc3)=Nc3ccccc3S2)cc1 (stereo not shown),,,"Wistar rat, STZ-induced diabetes","oral, 10 mg/kg once daily, day 28",,body weight,177 ± 4.88 g
O=Cc1c(O)ccc2ccccc12,HUVEC,"RNA sequencing, item: DDIT3",,"75 µM, 24 h",baseline: DMSO,log2 fold change,3.69
COc1ccc2occ(/C=C/C(=O)N3CCN(C(=S)SCCCN(C)C)CC3)c(=O)c2c1,tomato spotted wilt virus,"viral infection, half-leaf method",Nicotiana glutinosa,500 µg/mL,,curative effect,62.5 ± 7.4%
Cc1cc(O)c(C=O)c2c1C(=O)Oc1c(CO)c(O)c3c(c1O2)C(O)OC3=O (stereo not shown),,copulatory behaviour test,"rat, male, streptozotocin-induced diabetes","10 mg/kg, day 63",,Ejaculatory latency,828 ± 58.5 s
CCSC(=S)N1CCN(C(=O)/C=C/c2coc3ccccc3c2=O)CC1,tomato spotted wilt virus,"viral infection, half-leaf method",Nicotiana glutinosa,500 µg/mL,,inactivation effect,54.1 ± 4.3%
CC(=O)OC[C@H]1O[C@@H](Sc2sc(C(=O)c3ccc(Br)cc3)c(N)c2-c2nc3ccccc3s2)[C@H](OC(C)=O)[C@@H](OC(C)=O)[C@H]1OC(C)=O,RPMI-8226,SRB,,"10 µM, 48 h",,growth,65.5%
CCN(CC)CCSC(=S)N1CCN(C(=O)/C=C/c2coc3ccccc3c2=O)CC1,tomato spotted wilt virus,"viral infection, half-leaf method",Nicotiana glutinosa,500 µg/mL,,protective effect,59.5 ± 4.9%
Oc1ccc(C(F)(F)F)cc1-c1nc2c(Cl)cc(Cl)cc2[nH]1,Klebsiella pneumoniae,colistin potentiator,"KP F3, colistin-resistant",5 µM,,colistin MIC,2 µg/mL
Cc1cc([C@H](C(=O)N2C[C@H](O)C[C@H]2C(=O)N[C@@H](CC(=O)N2CCC(N3CCC(C#Cc4ccc(C(=O)N[C@H]5C(C)(C)[C@H](Oc6ccc(C#N)c(Cl)c6)C5(C)C)cc4)CC3)CC2)c2ccc(-c3scnc3C)cc2)C(C)C)on1,MDA-MB-453,"complete restoration of decrease, item: CDKN1A",,24 h,,effective concentration,1000 nM
CCN(CC)CCSC(=S)N1CCN(C(=O)/C=C/c2coc3ccc(F)cc3c2=O)CC1,tomato spotted wilt virus,"viral infection, half-leaf method",Nicotiana glutinosa,500 µg/mL,,inactivation effect,70.6%
CC/C=C\C/C=C\C/C=C\C/C=C\C/C=C\CCCCOC(CC)C(=O)O (stereo not shown),,,"APOE*3Leiden.CETP mice, high-fat/cholesterol diet","dose not given, 20 weeks",baseline: control,hepatic arachidonic acid,decreased
Oc1cc(C(F)(F)F)ccc1-c1nc2c(C(F)(F)F)cc(C(F)(F)F)cc2[nH]1,Klebsiella pneumoniae,colistin potentiator,"KP F9, colistin-resistant",5 µM,,colistin MIC,0.5 µg/mL
CN(C)CCSC(=S)N1CCN(C(=O)/C=C/c2coc3ccc(F)cc3c2=O)CC1,tomato spotted wilt virus,"viral infection, half-leaf method",Nicotiana glutinosa,500 µg/mL,,protective effect,64.3 ± 4.3%
COc1ccc(C2CC(c3ccc(C)cc3)=Nc3ccccc3S2)cc1OC (stereo not shown),,,"Wistar rat, STZ-induced diabetes","oral, 10 mg/kg once daily, day 14",,body weight,177 ± 4.51 g
O=C(/C=C/c1coc2ccccc2c1=O)N1CCN(C(=S)SCc2ccccc2)CC1,tomato spotted wilt virus,"viral infection, half-leaf method",Nicotiana glutinosa,500 µg/mL,,protective effect,47.2 ± 5.8%
Cn1c(=O)oc2ccc(-c3ccc(CC(C#N)NC(=O)C4CNCCCO4)c(F)c3)cc21 (stereo not shown),neutrophil elastase (human),inhibitor,"human, whole blood","10 mg once daily, 31 days after discontinuation, normalised to neutrophil count",,reduction in NE activity,43.2%
O=C(/C=C/c1coc2ccccc2c1=O)N1CCN(C(=S)SC2CC2)CC1,tomato spotted wilt virus,"virus inactivation, half-leaf method",Nicotiana glutinosa,tested 31.25 to 500 µg/mL,,EC50,358 ± 7.6 µg/mL
COc1cc2c(OC3OCC(OC)C(OC)C3OC(=O)c3ccc(Br)cc3)c3c(c(-c4ccc5c(c4)OCO5)c2cc1OC)C(=O)OC3 (stereo not shown),FaDu,"western blot, item: mature cathepsin D",,"0.1, 1, 2 µM, 36 h, with: bafilomycin A1 0.1 µM",baseline: DMSO,protein level,decreased

# Excerpt of the above:
SMILES,tested on,assay,test system,setting,how to read,measurement,result
O=C(/C=C/c1coc2ccccc2c1=O)N1CCN(C(=S)SCc2ccccc2)CC1,tomato spotted wilt virus,"viral infection, half-leaf method",Nicotiana glutinosa,500 µg/mL,,protective effect,47.2 ± 5.8%
Cn1c(=O)oc2ccc(-c3ccc(CC(C#N)NC(=O)C4CNCCCO4)c(F)c3)cc21 (stereo not shown),neutrophil elastase (human),inhibitor,"human, whole blood","10 mg once daily, 31 days after discontinuation, normalised to neutrophil count",,reduction in NE activity,43.2%
